Assay results pooled from the literature.
Compare with care: the assays were run in different laboratories. “And” joins repeats or separate records; there may be more than shown. ± marks the error that the study gave.
HDAC1: Histone deacetylase 1 (HDAC1, Homo sapiens, UniProt Q13547)
Rhomboid protease AarA: Rhomboid protease AarA (Providencia stuartii, UniProt P46116)
PPARG: Peroxisome proliferator-activated receptor gamma (PPARG, Homo sapiens, UniProt P37231)
Melanoma-associated antigen 4 MAGE homology domain: Melanoma-associated antigen 4, MAGE homology domain (Homo sapiens, UniProt P43358)
CCR5 Y184K: C-C chemokine receptor type 5 (CCR5, Homo sapiens, UniProt P51681, Y184K)
PPARG ligand-binding domain: Peroxisome proliferator-activated receptor gamma, ligand-binding domain (PPARG, Homo sapiens, UniProt P37231)

SMILES	target	assay	system	setting	IC50
CC(C)(Oc1ccc(Cl)cc1)C(=O)O	Taste receptor type 1 member 3, with T1R1 (TAS1R3, Homo sapiens, UniProt Q7RTX0, H641A)	–	–	–	410000 nM
Cc1cc(C(=O)NCC(F)(F)c2ccc(Cl)cc2Cl)c(Oc2cccc(C3CC3)c2)nn1	serine palmitoyltransferase (Zymoseptoria tritici, UniProt F9X349+F9XMN6)	–	–	–	2610 ± 85 nM
Cc1nc2c(F)cc(-c3nc(Nc4ccc(CC(=O)NCCCCCC(=O)NO)cc4)ncc3F)cc2n1C(C)C	HDAC1	enzyme activity, inhibitor	–	–	8.4 nM
O=C1CC(c2ccccc2)N1S(=O)(=O)Cc1ccccc1 (centres unmarked)	Rhomboid protease AarA	enzyme activity, inhibitor, fluorescence	–	–	371000 nM
CCC(C(=O)NC1CCCCC1)n1c(SCc2cccc(F)c2)nc2ccncc21 (centres unmarked)	Cruzipain (Trypanosoma cruzi, UniProt P25779)	enzyme activity, inhibitor	–	–	6000 nM
O=C(NCC1CC1)c1cccc(NC(=O)C(C(F)(F)F)C(F)(F)F)c1	Rhomboid protease AarA	enzyme activity, inhibitor, fluorescence	–	–	20000 nM
CCCSc1nc(Sc2nnnn2C)c2nnn(CCO)c2n1	Lysine-specific histone demethylase 1A (KDM1A, Homo sapiens, UniProt O60341)	enzyme activity, inhibitor, fluorescence	–	–	598 nM
CCOc1ccccc1NC(=O)C(C(F)(F)F)C(F)(F)F	Rhomboid protease AarA	enzyme activity, inhibitor, fluorescence	–	–	3500 nM
Cc1nn(-c2cccc(N)c2)c(=O)c2cnc(Nc3ccc(N4CCNCC4)cc3)nc12	Tyrosine-protein kinase HCK (HCK, Homo sapiens, UniProt P08631)	enzyme activity, inhibitor	–	–	> 10000 nM
Cc1c(Cc2cc(F)cc(OC(C)(C)C(=O)O)c2)c2ccc(C(=O)N[C@@H](C)c3cc(F)cc(C(C)(C)C)c3)cc2n1CC1CCC1	PPARG	ligand displacement, TR-FRET	–	–	3.05 nM
Cc1ccc(N=C2CC(=O)c3sc(C)nc3C2=O)cc1	N-lysine methyltransferase KMT5A (KMT5A, Homo sapiens, UniProt Q9NQR1)	enzyme activity, inhibitor, radiometric	–	–	600 nM
Cc1c(Cc2cccc(OC(C)(C)C(=O)O)c2)c2ccc(C(=O)N[C@H](C)c3cccc(C(C)(C)C)c3)cc2n1C	PPARG	ligand displacement, TR-FRET	–	–	2 nM
CC[C@H](C)[C@@H]1NC(=O)[C@H](Cc2ccc(O)cc2)NC(=O)CSC[C@@H](C(N)=O)NC(=O)[C@H](CC(N)=O)NC(=O)[C@H](Cc2c[nH]cn2)NC(=O)[C@H](Cc2ccc(O)cc2)NC(=O)[C@H](CC(=O)O)NC(=O)[C@H](Cc2ccc(O)cc2)NC(=O)[C@H](CC(C)C)NC(=O)[C@H](CCCCN)NC1=O	Melanoma-associated antigen 4 MAGE homology domain	binding, inhibitor, TR-FRET displacement	–	added: Alexa647-MTP-1	18.9 ± 7.1 nM
COC(=O)CCCCCCCNC(=O)c1ccc(Nc2ncc(F)c(-c3cc(F)c4nc(C)n(C(C)C)c4c3)n2)cc1	HDAC1	enzyme activity, inhibitor	–	–	> 1000 nM
CC(C)Oc1cc(NC(=O)[C@H](Cc2ccccc2)NC(=O)c2ccc(N)cc2OCc2ccccc2)ccc1C(=O)NCC(=O)O	Induced myeloid leukemia cell differentiation protein Mcl-1 (MCL1, Homo sapiens, UniProt Q07820)	fluorescence anisotropy competition	–	pH 7.50, added: FITC-NOXA B tracer	> 100000 nM
COc1ccc(Nc2cc(NC3CC3)n3ncc(C#N)c3n2)cc1	Phosphorylase b kinase gamma catalytic chain, liver/testis isoform (PHKG2, Homo sapiens, UniProt P15735)	inhibitor	–	–	> 10000 nM
CCOc1ccc(NC(=O)C(C(F)(F)F)C(F)(F)F)cc1	Rhomboid protease AarA	enzyme activity, inhibitor, fluorescence	–	–	11000 nM
Cc1c(Cc2cccc(OC(C)(C)C(=O)O)c2)c2ccc(C(=O)N[C@@H](C)c3cccc(C(C)C)c3)cc2n1C	PPARG	ligand displacement, TR-FRET	–	–	1 nM
CCN(CC)CC(=O)Nc1cccc(-n2cc(-c3ccc4ccc(-c5cn(-c6cccc(NC(=O)CN(CC)CC)c6)nn5)cc4c3)nn2)c1	Mast/stem cell growth factor receptor Kit (KIT, Homo sapiens, UniProt P10721)	enzyme activity, inhibitor	–	–	> 10000 nM
COC(=O)CCCCC(=O)Nc1ccc(Nc2ncc(F)c(-c3cc(F)c4nc(C)n(C(C)C)c4c3)n2)cc1	HDAC1	enzyme activity, inhibitor	–	–	> 1000 nM
OB1c2sccc2C=NN1Cc1ccccc1	Plasma kallikrein (KLKB1, Homo sapiens, UniProt P03952)	enzyme activity, inhibitor	–	–	> 100000 nM
Cc1nnc(C(C)C)n1C1CC2CCC(C1)N2CCC(NC(=O)COCCOCCOCCOCCNC(=O)Cc1ccc(-c2nncnn2)cc1)c1ccccc1 (centres unmarked)	CCR5 Y184K	calcium mobilisation, inhibitor	HEK293T expressing CCR5	added: PSC-RANTES	23.1 nM and 9.62 nM

SMILES	target	assay	system	setting	IC50
O=C(CCNC(=O)CNC(=O)CC(c1ccccc1)(c1ccccc1)c1ccccc1)NC[C@@H]1CCCN(Cc2ccc(F)cc2)C1	Muscarinic acetylcholine receptor M2 (CHRM2, Homo sapiens, UniProt P08172)	ligand displacement, radioligand	–	cell membranes	25500 nM
Cc1cncn1Cc1ccc(-c2cccc(Br)c2)cc1	Glutaminyl-peptide cyclotransferase-like protein (Homo sapiens, UniProt Q9NXS2)	–	–	–	1670 nM
O=C1CC(c2ccccc2)N1S(=O)(=O)c1cccc(-c2ccccc2)c1 (centres unmarked)	Rhomboid protease AarA	enzyme activity, inhibitor, fluorogenic peptide	–	148 min pre-incubation	6600 nM
CC(C)Cn1cc(Cc2cccc(OC(C)(C)C(=O)O)c2)c2ccc(C(=O)N[C@@H](C)c3cccc(C(C)(C)C)c3)c(F)c21	PPARG ligand-binding domain	reporter gene, luciferase reporter	HEK293T, Gal4-PPARγ LBD	–	50 nM
Cc1nc2c(F)cc(-c3nc(Nc4ccc(C(=O)NCCCCC(=O)NO)cc4)ncc3F)cc2n1C(C)C	HDAC1	enzyme activity, inhibitor	–	–	79 nM
CC(=O)N(C)CCN1CCN(c2cnc3c(cc(C(=O)NCc4ccc(Cl)cc4)c(=O)n3CC(=O)N3CC(C)(F)C3)n2)C1=O	Voltage-gated inwardly rectifying potassium channel KCNH2 (KCNH2, Homo sapiens, UniProt Q12809)	ion current, inhibitor, patch clamp	–	–	13100 nM
Cc1c(Cc2cc(OC(C)C(=O)O)ccc2Cl)c2ccc(C(=O)NC(C)c3ccc(C(C)(C)C)cc3)cc2n1C (centres unmarked)	PPARG ligand-binding domain	reporter gene, luciferase reporter	HEK293T, Gal4-PPARγ LBD	–	536000 nM
C[C@H](NC(=O)C(C(F)(F)F)C(F)(F)F)c1ccccc1	Rhomboid protease AarA	enzyme activity, inhibitor, fluorescence	–	–	17000 nM
Cc1nnc(-c2ccc(CC(=O)NCCOCCOCC(=O)NC(CCN3C4CCC3CC(n3c(C)nnc3C(C)C)C4)c3ccccc3)cc2)nn1 (centres unmarked)	CCR5 Y184K	calcium mobilization, antagonist	HEK293T cells expressing CCR5	added: PSC-RANTES	23.6 nM
COCCN(C)CC(=O)NC(Cc1ccc(-c2ccccc2)cc1)B(O)O (centres unmarked)	Proteasome subunit beta type-9 / Proteasome subunit beta type-10 (Homo sapiens, UniProt P28065+P40306)	β1i activity, inhibitor	–	immunoproteasome, added: Ac-PAL-AMC	> 10000 nM
COc1ccc(O[C@@H]2O[C@H](COS(=O)(=O)O)[C@H](OS(=O)(=O)O)[C@H](O[C@@H]3O[C@H](C(=O)O)[C@@H](O[C@@H]4O[C@H](COS(=O)(=O)O)[C@H](OS(=O)(=O)O)[C@H](O[C@@H]5O[C@H](C(=O)O)[C@@H](OS(=O)(=O)O)[C@H](OCc6ccccc6)[C@H]5O)[C@H]4NC(C)=O)[C@H](OCc4ccccc4)[C@H]3O)[C@H]2NC(C)=O)cc1	Midkine (Homo sapiens, UniProt P21741)	heparin hexasaccharide binding, fluorescence polarisation competition	–	added: fluorescein-labelled hexasaccharide probe	25000 nM and 29000 nM
CC[C@H](C)[C@@H]1NC(=O)[C@H](Cc2ccc(O)cc2)NC(=O)CCSCc2cccc(c2)CSCCNC(=O)[C@H](Cc2c[nH]cn2)NC(=O)[C@H](Cc2ccc(O)cc2)NC(=O)[C@H](CC(=O)O)NC(=O)[C@H](Cc2ccc(F)c(F)c2)NC(=O)[C@H](CC(C)C)NC(=O)[C@H](CCCNC(=N)N)NC1=O	Melanoma-associated antigen 4 MAGE homology domain	binding, inhibitor, TR-FRET displacement	–	added: Alexa647-MTP-1	93.2 ± 1.5 nM
COc1cc2c(c(OC)c1OC)-c1c(cc3c(c1OC)OCO3)CC(C)C(C)C2 (centres unmarked)	CYP3A, rat	poziotinib metabolism to M2, inhibitor	rat liver microsomes, 0.3 mg/mL	30 min, added: poziotinib 5 µM	6970 nM
O=C(NCc1cccc(Cl)c1)C(C(F)(F)F)C(F)(F)F	Rhomboid protease AarA	enzyme activity, inhibitor, fluorescence	–	–	5400 nM
Cc1c(Cc2ccc(OC(C)(C)C(=O)O)cc2)c2ccc(C(=O)N[C@@H](C)c3cccc(C(F)(F)F)c3)cc2n1C	PPARG ligand-binding domain	reporter gene, luciferase reporter	HEK293T, Gal4-PPARγ LBD	–	1780 nM
CCCCCCCCCCCCCCN(O)C(=O)CCCCC[C@@H]1NC(=O)[C@H]([C@@H](C)CC)NC(=O)[C@H](Cc2ccccc2C(F)(F)F)NC(=O)CCSCc2cccc(n2)CSCCCNC1=O	Histone deacetylase 5 (HDAC5, Homo sapiens, UniProt Q9UQL6)	enzyme activity, inhibitor, fluorogenic	–	–	> 30000 nM
Cc1cc(NC2CCN(C)CC2)ccc1-c1cc2c(N3CCC[C@H](C(=O)NCc4ccc(OC(F)(F)F)cc4)C3)ncnc2[nH]1	Glycogen synthase kinase-3 alpha (GSK3A, Homo sapiens, UniProt P49840)	enzyme activity, inhibitor, mobility shift	–	–	> 8000 nM
O=C(O)COc1ccccc1NC(=O)C(C(F)(F)F)C(F)(F)F	Rhomboid protease AarA	enzyme activity, inhibitor, fluorescence	–	–	16000 nM
Cc1c(Cc2cccc(OC(C)(C)C(=O)O)c2)c2ccc(C(=O)N[C@@H](C)c3cccc(C#N)c3)cc2n1C	PPARG ligand-binding domain	reporter gene, luciferase reporter	HEK293T, Gal4-PPARγ LBD	–	940 nM
N#Cc1ccc(-c2cnc(C(=O)CCCCCCc3ccccc3)o2)nc1	Fatty-acid amide hydrolase 1 (Faah, Mus musculus, UniProt O08914)	enzyme activity, inhibitor	–	with preincubation	< 10 nM
Cc1c(Cc2ccc(OC(C)(C)C(=O)O)cc2)c2ccc(C(=O)N[C@@H](C)c3ccc(C(C)C)cc3)cc2n1C	PPARG ligand-binding domain	reporter gene, luciferase reporter	HEK293T, Gal4-PPARγ LBD	–	1590 nM
COc1ccc2c(c1)CN(C(=O)CCN1CCC(Cc3ccccc3)CC1)CCS2	Sodium channel protein type 5 subunit alpha (SCN5A, Homo sapiens, UniProt Q14524)	INa current, inhibitor, whole-cell patch clamp	stable cell line	–	1700 nM
